# Results gathered from unrelated publications.
# Compare with care: the assays were run in different laboratories. Numbers after ± are the reported error.
SMILES,test,test system,conditions,tissue uptake [%ID/g]
CC(C)[C@H](NC(=O)[C@@H]1CCCN1C(=O)[C@H](CCCNC(=N)N)NC(=O)[C@H](CS)NC(=O)[C@H](Cc1c[nH]c2ccccc12)NC(=O)[C@H](CCCNC(=N)N)NC(=O)[C@@H](Cc1ccccc1)NC(=O)[C@H](Cc1c[nH]cn1)NC(=O)[C@H](CCC(=O)O)NC(=O)[C@H](CS)NC(=O)[C@H](CS)NC(=O)[C@@H]1CC(=O)N[C@@H](CCCNC(=N)N)C(=O)NCC(=O)N[C@@H](CC(=O)O)C(=O)N[C@H](Cc2ccc(O)cc2)C(=O)N1)C(N)=O [technetium-99m labelled],,"C57 mice B16/F1 melanoma female, liver","iv, 2 h, added: NDP-MSH 10 µg co-injected",1.21 ± 0.24
O=C([O-])CN1CCN(CC(=O)[O-])CCN(CC(=O)NCCc2ccc3c(c2)C2C=CCC2C(c2cc4c(cc2Br)OCO4)N3)CCN(CC(=O)[O-])CC1.[111In+3] (stereo not drawn),,"mice with Hec50 tumour xenograft, small intestine","2 h, added: G-1 5 µg blocking",2.32 ± 0.76
CCCC[C@H](NC(=O)CNC(=O)CNC(=O)CN1CCN(CC(=O)O)CCN(CC(=O)O)CC1)C(=O)N[C@H]1CC(=O)NCCCC[C@@H](C(N)=O)NC(=O)[C@H](Cc2c[nH]c3ccccc23)NC(=O)[C@H](CCCNC(=N)N)NC(=O)[C@@H](Cc2ccccc2)NC(=O)[C@H](Cc2c[nH]cn2)NC1=O [gallium-67 labelled],,"female C57 mice, B16/F1 melanoma, blood","intravenous, 0.037 MBq, 24 h",0.55 ± 0.12
O=C([O-])CN1CCN(CC(=O)[O-])CCN(CC(=O)[O-])CCN(CC(=O)[O-])CC1.[64Cu+2],,"healthy athymic nude mice, stomach","intravenous, 4 h",0.72
CC(C)[C@H](NC(=O)[C@@H]1CCCN1C(=O)[C@H](CCCNC(=N)N)NC(=O)[C@H](CS)NC(=O)[C@H](Cc1c[nH]c2ccccc12)NC(=O)[C@H](CCCNC(=N)N)NC(=O)[C@@H](Cc1ccccc1)NC(=O)[C@H](Cc1c[nH]cn1)NC(=O)[C@H](CCC(=O)O)NC(=O)[C@H](CS)NC(=O)[C@H](CS)NC(=O)CNC(=O)[C@@H]1CC(=O)N[C@@H](CCCNC(=N)N)C(=O)NCC(=O)N[C@@H](CC(=O)O)C(=O)N[C@H](Cc2ccc(O)cc2)C(=O)N1)C(N)=O [technetium-99m labelled],,"C57 mice B16/F1 melanoma female, stomach","iv, 2 h, added: NDP-MSH 10 µg co-injected",2.88 ± 0.66
CCCC[C@H](NC(=O)CNC(=O)CNC(=O)CN1CCN(CC(=O)O)CCN(CC(=O)O)CCN(CC(=O)O)CC1)C(=O)N[C@H]1CC(=O)NCCCC[C@@H](C(N)=O)NC(=O)[C@H](Cc2c[nH]c3ccccc23)NC(=O)[C@H](CCCNC(=N)N)NC(=O)[C@@H](Cc2ccccc2)NC(=O)[C@H](Cc2c[nH]cn2)NC1=O [gallium-67 labelled],,"female C57 mice, B16/F1 melanoma, stomach","intravenous, 0.037 MBq, 24 h",0.62 ± 0.23
NC12CNCCNCC(NCc3ccc(CNC(=O)CCCC(=O)NCc4ccc(-c5nncnn5)cc4)cc3)(CNCCNC1)CNCCNC2.[64Cu+2],,"athymic nude mice SW1222 xenograft, lung","12 h post injection, 24 h accumulation interval, added: huA33-TCO pretargeting",1.24 ± 0.22
O=C(NCC1OC2CCC=CCCC2O1)c1ccc([18F])nc1 (stereo not drawn),,"female BALB/c nude mice, kidneys","intravenous, 60 min",4.5 ± 0.7
CCCC[C@H](NC(=O)CN1CCC(NC(=O)CN2CCN(CC(=O)O)CCN(CC(=O)O)CCN(CC(=O)O)CC2)CC1)C(=O)N[C@H]1CC(=O)NCCCC[C@@H](C(N)=O)NC(=O)[C@H](Cc2c[nH]c3ccccc23)NC(=O)[C@H](CCCNC(=N)N)NC(=O)[C@@H](Cc2ccccc2)NC(=O)[C@H](Cc2c[nH]cn2)NC1=O [gallium-68 labelled],,"C57BL/6J mice male B16-F10 tumour, fat","2 h post injection, unblocked",0.2 ± 0.1
CN1C(=O)[C@@H](Cc2ccc(O)c(I)c2)NC(=O)CNC(=O)[C@H](Cc2ccc3ccccc3c2)NC(=O)[C@H](CCCNC(=N)N)NC(=O)[C@H]1CCCNC(=O)c1ccc(CNC(=O)CN2CCN(CC(=O)O)CCN(CC(=O)O)CCN(CC(=O)O)CC2)cc1 [lutetium-177 labelled],measured: 177Lu radioactivity,"female CB-17 SCID mice, Daudi xenograft, kidney","intravenous, 0.16 nmol per mouse, 48 h",1.2 ± 0.13
O=C([O-])c1cccc(CN(CCN(Cc2cn(Cc3ccccc3)nn2)Cc2cccc(C(=O)[O-])n2)Cc2cn(Cc3ccccc3)nn2)n1.[64Cu+2],,"healthy athymic nude mice, blood","intravenous, 24 h",1.19
CCCC[C@@H]1NC(=O)[C@@H](NC(=O)[C@H](CCC(=O)O)NC(=O)CNC(=O)CN2CCN(CC(=O)O)CCN(CC(=O)O)CCN(CC(=O)O)CC2)CCCCNC(=O)C[C@@H](C(N)=O)NC(=O)[C@H](C(C)C)NC(=O)[C@@H]2CCCN2C(=O)[C@H](CCCNC(=N)N)NC(=O)CNC(=O)[C@H](Cc2c[nH]c3ccccc23)NC(=O)[C@H](CCCNC(=N)N)NC(=O)[C@@H](Cc2ccccc2)NC(=O)[C@H](Cc2c[nH]cn2)NC(=O)[C@H](CCC(=O)O)NC1=O [gallium-67 labelled],,"B16/F1 melanoma-bearing C57 mice, normal organs except kidneys","intravenous, 0.037 MBq, 2, 4, 24 h, range over time points",< 0.3

# For quick reference, copied from above:
SMILES,test,test system,conditions,tissue uptake [%ID/g]
O=C([O-])CN1CCN(CC(=O)[O-])CCN(CC(=O)[O-])CCN(CC(=O)[O-])CC1.[64Cu+2],,"healthy athymic nude mice, stomach","intravenous, 4 h",0.72
